# Measured values pooled from the literature.
# Protocols differ between the studies behind these lines. “And” joins repeats or separate records; there may be more than shown. Numbers after ± are the reported error.
# RORC: Nuclear receptor ROR-gamma (RORC, Homo sapiens, UniProt P51449)
# WD repeat-containing protein 91 residues 392–747: WD repeat-containing protein 91, residues 392–747 (Homo sapiens, UniProt A4D1P6)
# Glutamate receptor 2: Glutamate receptor 2 (Homo sapiens, UniProt P42262)
# Genome polyprotein NS3 helicase domain: Genome polyprotein, NS3 helicase domain (Hepatitis C virus genotype 1b, UniProt Q9WMX2)
# T1: RNA aptamer; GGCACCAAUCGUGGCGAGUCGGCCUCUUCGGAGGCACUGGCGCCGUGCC
SMILES,target,assay,test system,conditions,scale,quantity,result
Cc1[nH]c(C)c(S(=O)(=O)Nc2ccc(C(F)(F)F)c(Cl)c2)c1C(=O)N1CCC(F)(F)C1,"DRD3 (Homo sapiens, UniProt P35462)","allosteric modulator, ternary complex model",,"together with: pramipexole, [3H]methylspiperone",,cooperativity factor α,8.7
O=C(/C=C/c1ccc(O)cc1)c1ccc(O)cc1O,"Estrogen receptor (ESR1, Homo sapiens, UniProt P03372)",array formation,PRL-HeLa,,reference: EC50 ERβ over EC50 ERα,selectivity ratio,2.68
Cc1ccccc1-c1cc(C(=O)N2CCN(c3cccc(C(F)(F)F)c3)CC2)c2ccccc2n1,RORC,cell-based,,concentration not given,,activity class,active
CC(=O)c1cccc(OCc2cn(-c3ccc(C(=O)N4CCC(C#N)CC4)cc3)nn2)c1,WD repeat-containing protein 91 residues 392–747,SPR dose-response titration,,"concentration not given, 1:1 binding model",,binding,93% and 99%
CC(C)(O)c1ccc(-c2nc3cc(NC(=O)c4ccc(-c5ccccc5)cc4)ccc3c(=O)[nH]2)cc1,"TNKS2 (Homo sapiens, UniProt Q9H2K2)","PARylation, inhibitor, biochemical PARylation",,,reference: TNKS1 IC50 over TNKS2 IC50,selectivity ratio,1940
CN(CCO)c1ccc(/C=C(\C#N)c2ccc(C#N)cc2)cc1,"T1, RNA aptamer","fluorescence titration, Hill fit",,apparent,,Kd,37.5 nM
COc1ccccc1-c1n[nH]c2nc(N[C@H]3CC[C@H](NS(=O)(=O)CCCOCCOCCNC(=O)OC(C)(C)C)CC3)ncc12,"cdc2-related kinase 12 (Leishmania donovani, UniProt A0A3S7WQK2)",resin binding competition,promastigote lysate,10 µM,reference: DMSO,log2 SILAC ratio heavy/light,4.4
O=C1NC(=O)C(c2ccccc2)(c2ccccc2)N1,Glutamate receptor 2,"ion current, negative allosteric modulator, SyncroPatch patch clamp",HEK293,30 µM,,inhibition,1%
COc1cc(NC(=O)c2ccccn2)ccc1/N=N/c1ccccc1Cl,"GRM5 (Homo sapiens, UniProt P41594)","positive allosteric modulator, IP accumulation",HEK293,"30 µM, in the dark, together with: low-dose orthosteric agonist",,activation,4.89%
N[C@H](COP(=O)(O)O)Cc1c[nH]cn1,Act1,"substrate, coupled phosphate release",,,,Km,18 ± 1 µM
COc1cccc2c(Nc3ccc4[nH]c(C(=O)N/N=C/c5ccc(SC)cc5)cc4c3)cc(C)nc12,RORC,"reporter gene, Gal4 hybrid reporter",,3 µM,reference: vehicle,activation,0.95 fold
NC(=O)c1cnccn1,Genome polyprotein NS3 helicase domain,"DNA binding, inhibitor",hepatitis C virus,"100 µM, together with: Cy5-dT15 DNA",,inhibition,1%
CC[C@@H]1[C@H](F)C(=O)N[C@@H]1COc1nccc2cc(C(N)=O)c(OC)cc12,"WEE1 (Homo sapiens, UniProt P30291)","ATP-site probe binding, ActivX profiling",THP-1 cell lysate,"0.01 mM, Lys2 site",,inhibition,25.6%
NC(CO)C(=O)NNCc1ccc(O)c(O)c1O (centres unmarked),Genome polyprotein NS3 helicase domain,"DNA binding, inhibitor",hepatitis C virus,"100 µM, together with: Cy5-dT15 DNA",,inhibition,1%
CC[C@H](C)[C@H](NC(=O)[C@H](CCSC)NC(=O)[C@H](CCSC)NC(=O)[C@H](C)NC(=O)[C@H](C)NC(=O)[C@H](Cc1ccc(O)cc1)NC(=O)[C@@H](NC(=O)[C@H](CCCCN)NC(=O)CNC(=O)[C@@H](NC(=O)[C@@H](NC(=O)[C@H](CCSC)NC(=O)[C@H](Cc1c[nH]cn1)NC(=O)CN)[C@@H](C)O)C(C)C)[C@@H](C)CC)C(=O)N[C@@H](C)C(=O)N[C@@H](CCC(=O)O)C(=O)N[C@@H](Cc1ccc(O)cc1)C(=O)N[C@@H](Cc1ccc(O)cc1)C(=O)N[C@@H](CCCNC(=N)N)C(=O)N[C@@H](CCC(N)=O)C(=O)N[C@@H](CO)C(=O)N[C@@H](CCCCN)C(=O)N[C@@H](C)C(=O)N[C@@H](CCCCN)C(=O)N[C@@H](CCCCN)C(=O)N[C@@H](CC(C)C)C(=O)N[C@@H](CCC(N)=O)C(=O)N[C@@H](C)C(=O)N[C@@H](CCSC)C(=O)N[C@@H](CCCNC(=N)N)C(=O)O,"Calmodulin-1, Ca2+-bound C-lobe (CALM1, Homo sapiens, UniProt P0DP23)","binding, isothermal titration calorimetry",,"pH 7.4, 15 °C, C-lobe, CaV2.1 IQ domain, together with: Ca2+",,ΔS,10.4 ± 0.6 cal/mol/K
NC(=O)c1ccccc1,Genome polyprotein NS3 helicase domain,"DNA binding, inhibitor",hepatitis C virus,"100 µM, together with: Cy5-dT15 DNA",,inhibition,0%
CCCCC[S+]([O-])c1n[nH]c(N)n1 (centres unmarked),"Transducin-like enhancer protein 4 (TLE4, Homo sapiens, UniProt Q04727)","binding, affinity selection mass spectrometry",,,reference: other proteins in batch,log fold enrichment,-0.0585
NC[C@@H]1O[C@H](O[C@H]2[C@@H](O)[C@H](O[C@@H]3[C@@H](O)[C@H](N)C[C@H](N)[C@H]3O[C@H]3O[C@H](CO)[C@@H](O)[C@H](O)[C@H]3N)O[C@@H]2CO)[C@H](N)[C@@H](O)[C@@H]1O,Genome polyprotein NS3 helicase domain,"DNA binding, inhibitor",hepatitis C virus,"100 µM, together with: Cy5-dT15 DNA",,inhibition,0%
NC(=O)CC[C@H](N)C(=O)O,"N-alpha-acetyltransferase 80 (NAA80, Homo sapiens, UniProt Q93015)","substrate, DTNB",,"2 mM, 30 min, 37 °C, together with: acetyl-CoA 500 µM",,product formation,2.28 µM
N#Cc1cccc2c1CC[C@H]2NC(=O)c1ccc(-c2ccco2)[nH]1,WD repeat-containing protein 91 residues 392–747,SPR dose-response titration,,"concentration not given, 1:1 binding model",,binding,56%
N#CC(C#N)=C(N)/C(C#N)=C/c1cc(O)c(O)c(O)c1,Genome polyprotein NS3 helicase domain,"DNA binding, inhibitor",hepatitis C virus,"100 µM, together with: Cy5-dT15 DNA",,inhibition,19%
Nc1nc2c(ncn2[C@@H]2O[C@H](COP(=O)(O)O)[C@@H](O)[C@H]2O)c(=O)[nH]1,"GUK1 (Homo sapiens, UniProt Q16774, Y81A)","enzyme activity, NADH-coupled",,500 µM,,reaction rate,3.41 s⁻¹ and 2.92 s⁻¹ and 3.29 s⁻¹
CC12CC3CC(C)(C1)CC(N)(C3)C2,Glutamate receptor 2,"ion current, positive allosteric modulator, SyncroPatch patch clamp",HEK293,30 µM,,potentiation,77%
N#Cc1cccc(C(=O)Nc2cc(-c3ccccc3)nn2-c2ccccc2)c1,"Grm5 (Rattus norvegicus, UniProt P31424)","calcium mobilization, agonist","HEK293 cells, low receptor expression",,reference: glutamate maximum,maximum agonist efficacy,13%
NC(=O)C1=CN([C@@H]2O[C@H](COP(=O)(O)OP(=O)(O)OC[C@H]3O[C@@H](n4cnc5c(N)ncnc54)[C@H](OP(=O)(O)O)[C@@H]3O)[C@@H](O)[C@H]2O)C=CC1,ancestral FSP1,"oxidoreductase activity, substrate",,together with: co-substrate 100 µM fixed,,kcat,11.6 ± 0.88 s⁻¹
CN1C(=O)COc2c(C(=O)NC3CN4CCC3CC4)cc(Cl)cc21 (centres unmarked),"ACHE (Homo sapiens, UniProt P22303)",,,,reference: IC50 over human plasma Cmax,IC50/Cmax ratio,< 10
CC1=C(C(=O)O)N2C(=O)[C@@H](NC(=O)[C@H](N)C3=CCC=CC3)[C@H]2SC1,Genome polyprotein NS3 helicase domain,"DNA binding, inhibitor",hepatitis C virus,"100 µM, together with: Cy5-dT15 DNA",,inhibition,0%
C=CC(=O)N1CCC(COCC(=O)N2CCN(c3nc(-c4cnc(N)nc4C(F)F)nc(N4CCOC[C@@H]4C)n3)CC2)CC1,"RIPK4 (Homo sapiens, UniProt P57078)",KINOMEscan,,1 µM,,remaining binding,100%
COc1cc(/C=C/c2cc(/C=C/c3ccc(O)c(OC)c3)n(-c3cccc([N+](=O)[O-])c3)n2)ccc1O,haemin,"binding, isothermal titration calorimetry",,"pH 7.4, 37 °C",,ΔS,-195 ± 9.05 J/(mol·K)

# Repeated from above:
SMILES,target,assay,test system,conditions,scale,quantity,result
CN1C(=O)COc2c(C(=O)NC3CN4CCC3CC4)cc(Cl)cc21 (centres unmarked),"ACHE (Homo sapiens, UniProt P22303)",,,,reference: IC50 over human plasma Cmax,IC50/Cmax ratio,< 10
CC1=C(C(=O)O)N2C(=O)[C@@H](NC(=O)[C@H](N)C3=CCC=CC3)[C@H]2SC1,Genome polyprotein NS3 helicase domain,"DNA binding, inhibitor",hepatitis C virus,"100 µM, together with: Cy5-dT15 DNA",,inhibition,0%
